# Measurements of several laboratories.
# Compare with care: the assays were run in different laboratories.
# Organism: Pseudomonas aeruginosa
SMILES,assay,test system,conditions,MIC
CCCCCCCCCCCCCCCCCCn1cc(CN(CCC(=O)NCCN(CCC(=O)NCCN(CCC(=O)NCCN(C)C)CCC(=O)NCCN(C)C)CCC(=O)NCCN(CCC(=O)NCCN(C)C)CCC(=O)NCCN(C)C)CCC(=O)NCCN(CCC(=O)NCCN(CCC(=O)NCCN(C)C)CCC(=O)NCCN(C)C)CCC(=O)NCCN(CCC(=O)NCCN(C)C)CCC(=O)NCCN(C)C)nn1,,"PAK, LB broth",18 h,> 96 µg/mL
CC1(C)[C@H](NC(=O)/C(=N\OCc2c(Cl)cccc2Cl)c2csc(N)n2)C(=O)N1OS(=O)(=O)O,agar dilution,PAO1,,> 64 µg/mL
COc1ccc2ccc(O)c(/C=N/[C@H]3CCCC[C@H]3/N=C/c3cc(C(C)(C)C)ccc3O)c2c1,"microbial growth, broth dilution",,clinical isolate,> 40 µM
CC[C@H]1OC(=O)[C@H](C)[C@@H](OC(=O)Cc2ccc([N+](=O)[O-])cc2)[C@H](C)[C@@H](O[C@@H]2O[C@H](C)C[C@H](N(C)C)[C@H]2O)[C@](C)(OC)C[C@@H](C)C(=O)[C@H](C)[C@@H](O)[C@]1(C)O,,"PAO397, five efflux pumps deleted",,32 µg/mL
C=CCO/N=C(\C(=O)N[C@@H]1C(=O)N(OS(=O)(=O)O)C1(C)C)c1nsc(N)n1,agar dilution,PAO1,,4 µg/mL
COc1c(NC(=O)c2ccc(NC(=O)c3ccc(NC(=O)[C@H](Cc4c[nH]nn4)NC(=O)c4ccc(NC(=O)/C(C)=C/c5ccc(O)cc5)cc4)cc3)cc2)ccc(C(=O)O)c1O,broth microdilution,ciprofloxacin-sensitive,,32 µg/mL
N=C(N)NCCC[C@@H]1NC(=O)[C@H](CCCNC(=N)N)NC(=O)[C@@H](CCCNC(=N)N)NC(=O)[C@H](C(c2ccccc2)c2ccccc2)NC(=O)[C@H](C(c2ccccc2)c2ccccc2)NC(=O)[C@H](C(c2ccccc2)c2ccccc2)NC(=O)[C@H](CCCNC(=N)N)NC1=O,,ATCC 27853,,32 µg/mL
COc1ccc2ccc(O)c(/C=N/[C@H]3CCCC[C@H]3/N=C/c3ccccc3O)c2c1,"microbial growth, broth dilution",,clinical isolate,> 40 µM
CCCCCC[N+](C)(C)CCCCCCOc1cc(OCCCCCC[N+](C)(C)CCCCCC)cc(OCCCCCC[N+](C)(C)CCCCCC)c1.[Br-].[Br-].[Br-],,PAO1,,32 µM
O=C(O)c1cn(C2CC2)c2cc(N3CCNCC3)c(F)cc2c1=O,broth microdilution,pyocyanin non-producing,,0.03 µg/mL
CCCCCCCCCCCC(=O)Oc1c(C)c(OC)c2c(/C=C/c3ccccc3)c(CCCCCCCCCC)c(=O)oc2c1C,"microbial growth, broth dilution",ATCC27853,,5000 µg/mL
Cc1ccc(C(=O)Sc2cccccc2=O)cc1,broth microdilution,"ATCC 27853, CAMHB","16 to 24 h, ≥80% growth inhibition",> 71.4 µM
COc1cc(C(=O)O)ccc1NC(=O)c1ccc(NC(=O)c2ccc(NC(=O)[C@H](Cc3c[nH]nn3)NC(=O)c3ccc(NC(=O)/C(C)=C/c4ccc(O)cc4)cc3)cc2)c(OC)c1O,broth microdilution,ciprofloxacin-resistant,,32 µg/mL
CC[C@H]1OC(=O)[C@H](C)[C@@H](OC(=O)Cc2cccc([N+](=O)[O-])c2)[C@H](C)[C@@H](O[C@@H]2O[C@H](C)C[C@H](N(C)C)[C@H]2O)[C@](C)(OC)C[C@@H](C)C(=O)[C@H](C)[C@@H](O)[C@]1(C)O,microbial growth,ATCC27853,,> 32 µg/mL
COc1c(C)c(OCc2ccccc2)c(C)c(OCc2ccccc2)c1C(=O)/C=C/c1ccccc1,"microbial growth, broth dilution",ATCC27853,,5000 µg/mL
CCn1cc(C(=O)O)c(=O)c2cc(F)c(N3CCNCC3)cc21,broth microdilution,phenazine non-producing,,0.06 µg/mL
CC[C@H](C)[C@H](NC(=O)[C@H](CCC(N)=O)NC(=O)[C@H](Cc1ccccc1)NC(=O)[C@H](CC(N)=O)NC(=O)[C@H](CCCCN)NC(=O)[C@H](CC(C)C)NC(=O)[C@H](CCCNC(=N)N)NC(=O)[C@H](CCCCN)NC(=O)[C@H](CCCCN)NC(=O)[C@@H](NC(=O)[C@H](CO)NC(=O)[C@H](CCCCN)NC(=O)CNC(=O)[C@H](CC(C)C)NC(=O)[C@H](CCCCN)NC(=O)[C@H](CCCCN)NC(=O)[C@H](CC(C)C)NC(=O)[C@H](CCCCN)NC(=O)[C@H](CCCCN)NC(=O)[C@H](CCCNC(=N)N)NC(=O)[C@H](CC(C)C)NC(=O)CNC(=O)[C@@H](N)CCCNC(=N)N)[C@@H](C)CC)C(=O)NCC(=O)N[C@@H](Cc1ccccc1)C(=O)N[C@@H](CO)C(=O)N[C@H](C(=O)N1CCC[C@H]1C(=O)N[C@@H](Cc1ccccc1)C(=O)N[C@@H](C)C(=O)NCC(=O)O)C(C)C,broth microdilution,PAO1,,2.23 µM
CC[C@H]1OC(=O)[C@H](C)[C@@H](OC(=O)Cc2ccccc2Cl)[C@H](C)[C@@H](O[C@@H]2O[C@H](C)C[C@H](N(C)C)[C@H]2O)[C@](C)(OC)C[C@@H](C)C(=O)[C@H](C)[C@@H](O)[C@]1(C)O,,"PAO397, five efflux pumps deleted",,> 32 µg/mL
COc1cc(C(=O)O)ccc1NC(=O)c1ccc(NC(=O)c2ccc(NC(=O)[C@H](Cc3c[nH]nn3)NC(=O)c3ccc(NC(=O)/C(C)=C/c4ccc(O)cc4)cc3)cc2)c(OC)c1,broth microdilution,ciprofloxacin-resistant,,32 µg/mL
C=CCO/N=C(\C(=O)N[C@@H]1C(=O)N(OS(=O)(=O)O)C1(C)C)c1csc(N)n1,agar dilution,PAO1,,16 µg/mL
CN[C@H](CC(C)C)C(=O)N[C@H]1C(=O)N[C@@H](CC(N)=O)C(=O)N[C@H]2C(=O)N[C@H]3C(=O)N[C@H](C(=O)N[C@H](C(=O)NCc4cn(CC(=O)N[C@H](C(=O)N[C@@H](CCN)C(=O)N[C@H]5CCNC(=O)[C@H]([C@@H](C)O)NC(=O)[C@H](CCN)NC(=O)[C@H](CCN)NC(=O)[C@H](CC(C)C)NC(=O)[C@@H](CC(C)C)NC(=O)[C@H](CCN)NC5=O)[C@@H](C)O)nn4)c4cc(O)cc(O)c4-c4cc3ccc4O)[C@H](O)c3ccc(c(Cl)c3)Oc3cc2cc(c3O[C@@H]2O[C@H](CO)[C@@H](O)[C@H](O)[C@H]2O[C@H]2C[C@](C)(N)[C@H](O)[C@H](C)O2)Oc2ccc(cc2Cl)[C@H]1O,broth microdilution,"ATCC 27853, cation-adjusted Mueller-Hinton broth","18 to 20 h, 37 °C, 0.002% polysorbate 80",16 µg/mL
CC(C)(O/N=C(\C(=O)N[C@@H]1C(=O)N(OS(=O)(=O)O)C1(C)C)c1nsc(N)n1)C(=O)O,agar dilution,PAO1,,64 µg/mL
CCCCCCCCCC[N+](C)(C)CCCCOc1cc(OCCCC[N+](C)(C)CCCCCCCCCC)cc(OCCCC[N+](C)(C)CCCCCCCCCC)c1.[Br-].[Br-].[Br-],,PAO1,,2 µM
CN[C@H](CC(C)C)C(=O)N[C@H]1C(=O)N[C@@H](CC(N)=O)C(=O)N[C@H]2C(=O)N[C@H]3C(=O)N[C@H](C(=O)N[C@H](C(=O)O)c4cc(O)cc(O)c4-c4cc3ccc4O)[C@H](O)c3ccc(c(Cl)c3)Oc3cc2cc(c3O[C@@H]2O[C@H](CO)[C@@H](O)[C@H](O)[C@H]2O[C@H]2C[C@](C)(NCc3ccc(OCc4cn(CCCCC(=O)N[C@H](C(=O)N[C@@H](CCN)C(=O)N[C@H]5CCNC(=O)[C@H]([C@@H](C)O)NC(=O)[C@H](CCN)NC(=O)[C@H](CCN)NC(=O)[C@H](CC(C)C)NC(=O)[C@@H](CC(C)C)NC(=O)[C@H](CCN)NC5=O)[C@@H](C)O)nn4)c(OC)c3)[C@H](O)[C@H](C)O2)Oc2ccc(cc2Cl)[C@H]1O,broth microdilution,"ATCC 10145, cation-adjusted Mueller-Hinton broth","18 to 20 h, 37 °C, 0.002% polysorbate 80",64 µg/mL
